Experimental data of several laboratories.
Each numbered part is a random draw from the data of one study; scales do not carry over between parts. Substitutions count along the parent as printed.

Block 1
Target: Prothrombin, mature alpha-thrombin (F2, Homo sapiens, UniProt P00734)
Method: aptamer microarray, sandwich
Molecule type: DNA with 2'F-ANA
Medium: in vitro
Concentration: 200 nM
Setting: whole 15-mer aptamer, many near background
Added: Cy3 exosite-II aptamer, 400 nM
Reading: higher = stronger binding
Measurement: mean fluorescence intensity
Sequence: GGTTGGTGTGGTTGG
2'F-ANA at 2 3 4 9 14 15: 278 a.u.
2'F-ANA at 1 2 3 4 5 8 9 10 12 13 14: 46.1 a.u.
2'F-ANA at 4 5 8 10 11 12 13 15: 59.4 a.u.
2'F-ANA at 3 8 15: 1190 a.u.
2'F-ANA at 5 7 8 10 11 12 13 15: 77.9 a.u.
2'F-ANA at 3 7 8 10 11 12 14 15: 400 a.u.
2'F-ANA at 1 3 5 10 11 14 15: 55.5 a.u.
2'F-ANA at 4 5 8 11 14 15: 44.1 a.u.
2'F-ANA at 1 2 3 9 10 13 14: 97.6 a.u.
2'F-ANA at 2 5 6 7 8 9 10 11 12 14 15: 59.4 a.u.
2'F-ANA at 1 4 5 7 12: 108 a.u.
2'F-ANA at 2 3 4 5 7 8 9 13 14: 55.6 a.u.

Block 2
Target: CCNA1, cyclin fold, Cln2 fusion (human)
Method: yeast growth competition, sequencing
Medium: yeast
Setting: weak parent motif
Baseline: not given
Reading: higher = stronger binding
Measurement: normalised enrichment score
Parent: SCAPER docking peptide (human); SNARRSLNFGGST; partner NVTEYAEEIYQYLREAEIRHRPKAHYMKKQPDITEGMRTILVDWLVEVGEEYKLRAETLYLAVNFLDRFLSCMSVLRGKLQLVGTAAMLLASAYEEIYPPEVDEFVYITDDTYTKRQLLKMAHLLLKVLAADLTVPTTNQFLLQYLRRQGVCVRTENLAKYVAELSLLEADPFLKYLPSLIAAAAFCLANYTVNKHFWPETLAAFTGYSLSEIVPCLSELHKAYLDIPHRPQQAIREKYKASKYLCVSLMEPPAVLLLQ
S1Y: 0.588
N8T: 0.607
T13H: 0.544
T13K: 0.966
F9I: 0.308
F9M: 0.622
R4K: 0.507
G11D: 0.839
G10Y: 0.485

Block 3
Target: ABI1, truncated, D143A, DHFR fusion (Arabidopsis thaliana)
Method: DHFR PCA, deep sequencing
Medium: yeast
Setting: methotrexate growth selection, single substitutions
Added: (+)-ABA 710 µM
Baseline: wild-type fitted maximum
Reading: higher = stronger binding
Measurement: relative binding score
Parent: PYL1, truncated, DHFR fusion (Arabidopsis thaliana); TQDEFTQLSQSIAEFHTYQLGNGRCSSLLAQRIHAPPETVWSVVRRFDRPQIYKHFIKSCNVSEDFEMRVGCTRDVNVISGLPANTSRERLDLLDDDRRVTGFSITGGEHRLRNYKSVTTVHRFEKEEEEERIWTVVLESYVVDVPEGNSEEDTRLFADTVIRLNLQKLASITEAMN
A158L: 103%
L169D: -14.5%
V136T: 98%
K168W: 96.7%
Y18M: 99.1%

Further values, each from its own experiment
PhoQ, residues 284 288 289 292 302 303 ALVSVA  fold induction (PhoP, residues 12 14 15 18 19 MHTVL (Escherichia coli, UniProt P23836); Sort-seq, measured: YFP reporter; E. coli; PhoQ-PhoP variant library, added: 10 µM Mg2+; baseline: high Mg2+ state, higher = stronger signaling): 18.8

Some of these lines once more (block 1):
2'F-ANA at 2 3 4 9 14 15: 278 a.u.
2'F-ANA at 1 2 3 4 5 8 9 10 12 13 14: 46.1 a.u.
2'F-ANA at 4 5 8 10 11 12 13 15: 59.4 a.u.
2'F-ANA at 3 8 15: 1190 a.u.
